Published values collected from several papers.
Several values in a cell are separate wells, animals, samples, runs or records.

| SMILES | cell line | test | conditions | scale | endpoint | result |
| --- | --- | --- | --- | --- | --- | --- |
| COc1cc(N(C)CCN(C)C)c(NC(=O)/C=C/c2cccc(C)c2)cc1Nc1nccc(-c2cn(C)c3ccccc23)n1 | NCI-H1975 | cell growth or viability, MTT | 0.5 µM, 72 h | – | inhibition | 64.5% |
| N=C(N)NCCC[C@@H](NC(=O)[C@H](Cc1ccccc1)NC(=O)[C@H](Cc1ccccc1)NC(=O)[C@@H](CCCNC(=N)N)NC(=O)CCCC[C@@H]1SC[C@@H]2NC(=O)N[C@@H]21)C(N)=O | MDBK | alamarBlue | concentration not given, 5 days, serum-free medium | relative to: untreated cells | maximum cell viability increase | 1.8 fold |
| Cc1ncsc1-c1ccc(C(C)NC(=O)C2CC(O)CN2C(=O)C(NC(=O)CCCCCCCCCCN2CCCC(Nc3ncc(Cl)c(Nc4ccccc4S(=O)(=O)C(C)C)n3)C2)C(C)(C)C)cc1 (stereo not shown) | 22Rv1 | RNA-seq, item: MAF | concentration not given | relative to: DMSO | log2 fold change | -1.25 |
| CCCC(CCC)C(=O)OCc1cn(-c2cc3ccccc3oc2=O)nn1 | UACC-257 | NCI60 single-dose screen | 10 µM | – | growth percentage | 89.8% |
| COC(=O)C1=C(C)Oc2ccc(Br)cc2C1C(C(C)=O)C(=O)OC (stereo not shown) | 3T3-L1 preadipocytes | adipogenesis, Oil Red O staining | IC20, 14 days, single replicate | – | lipid content | 0.632 OD492 |
| CCN(C(=O)c1cc(F)ccc1Oc1nncnc1N1CCC2(C1)CN([C@H](CCCN(C)CCOC)C(C)C)C2)C(C)C | C-33-A | cell growth or viability | 7 days | – | GI50 | > 10000 nM |
| CN1CCCNC(=O)c2cccc(c2)C(=O)NCCCN(C)CCCNc2cccc3c2C(=O)c2cccc(c2C3=O)NCCC1 | SAS | RNA-Seq, item: SRSF4 mRNA | 1 µM, 6 h | relative to: untreated cells | log2 fold change | -1.4 |
| CCN(CC)CC(=O)Nc1cccc(-n2cc(-c3ccc4ccc(-c5cn(-c6cccc(NC(=O)CN(CC)CC)c6)nn5)cc4c3)nn2)c1 | RCC4 | PCR angiogenesis array, item: TNF | 5 x IC50, 6 h, normoxia | relative to: untreated | fold regulation | -2.43 fold |
| CCOC(=O)c1ccc(-n2c(N)c(C#N)c(SC)c(C#N)c2=O)cc1 | HepG2 | cell growth or viability, MTT | 12.5 µM, 24 h | – | viability | 67.5% |
| C=CC(=O)Nc1cc(Nc2nccc(-c3c(-c4ccc5cc(OC)ccc5c4)n(C)c4ccccc34)n2)c(OC)cc1N(C)CCN(C)C | NCI-H1975 | cell growth or viability, MTT | 0.5 µM, 72 h | – | inhibition | 59.9% |
| O=C(C[Se]C(=O)c1ccccc1Nc1cccc(C(F)(F)F)c1)Nc1cccc(C(F)(F)F)c1 | NCI60 melanoma subpanel | total growth inhibition, inhibitor | five-dose | – | mean TGI | 4390 nM |
| CNS(=O)(=O)Nc1nccc(Cc2c(C)c3ccc(Oc4ncccc4F)cc3oc2=O)c1F | MP38 | cell viability, CellTiter-Glo | 7 days | – | IC50 | 2.69 nM |
| COc1ccccc1-c1ccncc1C(=O)Nc1nnc(OCc2ccc(Cl)cc2)s1 | MDA-MB-231 | – | 3 µM, single replicate | relative to: untreated | colony survival | 98.5% and 81.5% |
| O=C(C[Se]C(=O)c1ccccc1Nc1ccccc1)Nc1cccc(C(F)(F)F)c1 | NCI60 melanoma subpanel | cell growth, inhibitor | five-dose | – | GI50 | 1610 nM |
| COc1cc(N(C)CCN(C)C)c(NC(=O)/C=C/c2ccc(C(F)(F)F)cc2)cc1Nc1nccc(-c2cn(C)c3ccccc23)n1 | NCI-H1975 | cell growth or viability, MTT | 0.5 µM, 72 h | – | inhibition | 71.3% |
| O=C(N1CCCC1)n1cc(-c2ccc(-c3ccccc3)cc2)nn1 | mouse T cells | N-terminal labelling proteomics, item: Paip2 N-terminal peptide | 0.001 µM, 6 h | relative to: DMSO | SILAC ratio per peptide | 1.27 and 0.87 and 1.18 and 1.03 and 1.15 and 0.94 and 1.06 |

| SMILES | cell line | test | conditions | scale | endpoint | result |
| --- | --- | --- | --- | --- | --- | --- |
| COC(=O)c1cc(NC2=NC(=O)C(=Cc3ccc(N(C)C)cc3)S2)ccc1OC(C)=O | MCF7 | GC-MS, item: Dl-Ornithine | 1 µM | relative to: DMSO | metabolite level | 0.04 fold change |
| N#Cc1ccnc(N2Cc3cn(Cc4ccc(F)cc4)nc3C2)n1 | HEK293 expressing GluA1 and GluA2 | glutamate excitotoxic cell death, CellTox Green | with: glutamate | – | IC50 | 72 nM |
| O=C(C[Se]C(=O)c1cc2ccccc2s1)Nc1cccc(C(F)(F)F)c1 | NCI60 melanoma subpanel | cell growth, inhibitor | five-dose | – | GI50 | 1410 nM |
| Cc1cc(Cl)cc(-c2ccnc3cc(CN4C(=O)C5C(C4=O)C5(C)C)sc23)c1C[C@@H]1CNCCO1 (stereo partly shown) | CHP-212 parental (wild-type USP7) | PI flow cytometry | 0.3 µM, 24 h | – | cells in G1 phase | 70.4% and 68.6% and 64.1% |
| O=C(C[Se]C(=O)C12CC3CC(CC(C3)C1)C2)Nc1cccc(C(F)(F)F)c1 | NCI60 leukaemia subpanel | NCI60 five-dose screen | – | – | mean TGI | 17300 nM |
| O=C(Nc1nnc2c1c(-c1ccc(Cl)cc1)nc1sc(=Cc3ccco3)c(=O)n12)c1ccccc1 (mixture of isomers) | HCC 2998 | SRB | 10 µM, NCI60 single-dose screen, colon cancer | relative to: untreated | cell growth | 54.1% |
| CCc1n(CC(=O)O[C@@H]2C[C@H](C)CC[C@H]2C(C)C)c2ccccc2[n+]1C | HTS cells (mouse) | gene microarray, item: SLC7A3 | 1 µM, 6 h, unit not given | relative to: untreated | mRNA level | 2.61 |
| C=CC(=O)Nc1cc(Nc2nccc(-c3c(-c4cc(F)ccc4OC)n(C)c4ccccc34)n2)c(OC)cc1N(C)CCN(C)C | NCI-H1975 | cell growth or viability, MTT | 0.5 µM, 72 h | – | inhibition | 44.9% |
| Cn1ncc2cc(-c3cncc(Cl)c3N3CCC4(CCNC4=O)CC3)ccc21 | LS174T | gene expression, microarray, item: GADD45G mRNA | concentration not given, 4 h | relative to: untreated cells | log2 fold change | -1.59 |
| CC(=O)Oc1ccccc1C(=O)[Se]CC(=O)Nc1cccc(C(F)(F)F)c1 | NCI60 melanoma subpanel | cell growth | 10 µM, 48 h, one-dose | – | mean growth percent | -50.9% |
| COc1ccc(Br)c2c1OC1=C(C(=O)CCC1)C2c1c[nH]c2ccccc12 (stereo not shown) | 3T3-L1 preadipocytes | adipogenesis, Oil Red O staining | IC20, 14 days, single replicate | – | lipid content | 0.734 OD492 |
| C1=[N+]2CCCC[N+]3=Cc4ccc5[n]4[Au-]23[n]2c1ccc2-c1nc2ccccc2nc1-5.F[P-](F)(F)(F)(F)F | HOP-92 | NCI60 five-dose screen | – | – | TGI | 4 -log M |
| Cc1ccc(-n2cc(CSc3nc4ccccc4n3Cc3cn(-c4ccc(C)cc4)nn3)nn2)cc1 | MDA-MB-231 | MTT | 15.6 ppm | – | cytotoxicity | 75.7% |
| O=C(C[Se]C(=O)c1cc2ccccc2o1)Nc1cccc(C(F)(F)F)c1 | NCI60 melanoma subpanel | total growth inhibition, inhibitor | five-dose | – | mean TGI | 3340 nM |
| CC(C)c1ccc(N(C)c2ccc3c(c2)OCC[C@H]3CNc2cnccc2C(=O)O)cc1 | COLO-679 | cell viability, CellTiter-Glo | 7 days | – | IC50 | 2040 nM |
